Experimental data of several laboratories.
Each line is one published result; not all experiments were run side by side. ± gives the spread as reported.
Method: steady-state kinetics
B1: MTRR A129T (Homo sapiens, UniProt Q9UBK8); chain MRRFLLLYATQQGQAKAIAEEICEQAVVHGFSADLHCISESDKYDLKTETAPLVVVVSTTGTGDPPDTARKFVKEIQNQTLPVDFFAHLRYGLLGLGDSEYTYFCNGGKIIDKRLQELGARHFYDTGHTDDCVGLELVVEPWIAGLWPALRKHFRSSRGQEEISGALPVASPASSRTDLVKSELLHIESQVELLRFDDSGRKDSEVLKQNAVNSNQSNVVIEDFESSLTRSVPPLSQASLNIPGLPPEYLQVHLQESLGQEESQVSVTSADPVFQVPISKAVQLTTNDAIKTTLLVELDISNTDFSYQPGDAFSVICPNSDSEVQSLLQRLQLEDKREHCVLLKIKADTKKKGATLPQHIPAGCSLQFIFTWCLEIRAIPKKAFLRALVDYTSDSAEKRRLQELCSKQGAADYSRFVRDACACLLDLLLAFPSCQPPLSLLLEHLPKLQPRPYSCASSSLFHPGKLHFVFNIVEFLSTATTEVLRKGVCTGWLALLVASVLQPNIHASHEDSGKALAPKISISPRTTNSFHLPDDPSIPIIMVGPGTGIAPFIGFLQHREKLQEQHPDGNFGAMWLFFGCRHKDRDYLFRKELRHFLKHGILTHLKVSFSRDAPVGEEEAPAKYVQDNIQLHGQQVARILLQENGHIYVCGDAKNMAKDVHDALVQIISKEVGVEKLEAMKTLATLKEEKRYLQDIWS
B2: ZDHHC20 (Homo sapiens, UniProt Q5W0Z9); chain MAPWTLWRCCQRVVGWVPVLFITFVVVWSYYAYVVELCVFTIFGNEENGKTVVYLVAFHLFFVMFVWSYWMTIFTSPASPSKEFYLSNSEKERYEKEFSQERQQEILRRAARALPIYTTSASKTIRYCEKCQLIKPDRAHHCSACDSCILKMDHHCPWVNNCVGFSNYKFFLLFLLYSLLYCLFVAATVLEYFIKFWTNELTDTRAKFHVLFLFFVSAMFFISVLSLFSYHCWLVGKNRTTIESFRAPTFSYGPDGNGFSLGCSKNWRQVFGDEKKYWLLPIFSSLGDGCSFPTRLVGMDPEQASVTNQNEYARSSGSNQPFPIKPLSESKNRLLDSESQWLENGAEEGIVKSGTNNHVTVAIEN
B3: protein F222G (Planktothrix agardhii, UniProt F5B6Z0); chain MIVNVIQKDRLKEQKLQFIRNHQQAFDVEPIYPLPLFEDFVTSIEGDCSLEASCKIESDKLIASRFLLFFEDKTQEWQKYLHQSLTFFGLVENRVGVKINYSLLQQFLGSSFDFSKVTVLSAGIDLRNNLAESSLKMHIRIKDYPEKLDKAFALSDGAADGNYLKDFVNLIGFDFYFNGKSEIEIYAEVQEDDFFKPEINNLVWQHFPKTALQPLKASSLFGTGLSKANNNPVLYYHLKNRQDLTNYFKLNDTAQRVHSFYQHQDILPYMWVGTAQKELEKTRIENIRLYYYKSFKMESN
B4: CstB (Staphylococcus aureus, UniProt G5ELA4); chain MFFKQFYDNHLSQASYLVGCQRTGEAIIIDPVRDLSKYIEVADSEGLTITQATETHIHADFASGIRDVAKRLNANIYVSGEGEDALGYKNMPSKTQFVKHGDIIQVGNVKLEVLHTPGHTPESISFLLTDLGGGSSVPMGLFSGDFIFVGDIGRPDLLEKSVQIKGSTEISAKQMYESVQNIKNLPDYVQIWPGHGAGSPCGKALGAIPISTIGYEKINNWAFNEIDETKFIESLTSNQPAPPHHFAQMKQVNQFGMNLYQSYDVYPSLDNKRVAFDLRSKEAFHGGHTKGTINIPYNKNFINQIGWYLDFEKDIDLIGDKSTVEKAKHTLQLIGFDKVAGYRLPKSGISTQSVHSADMTGKEEHVLDVRNDEEWNNGHLDQAVNIPHGKLLNENIPFNKEDKIYVHCQSGVRSSIAVGILESKGFENVVNIREGYQDFPESLK
B5: PRODH2 157-515 (Homo sapiens, UniProt Q9UF12); chain YGQFVAGETAEEVKGCVQQLRTLSLRPLLAVPTEEEPDSAAKSGEAWYEGNLGAMLRCVDLSRGLLEPPSLAEASLMQLKVTALTSTRLCKELASWVRRPGASLELSPERLAEAMDSGQNLQVSCLNAEQNQHLRASLSRLHRVAQYARAQHVRLLVDAEYTSLNPALSLLVAALAVRWNSPGEGGPWVWNTYQACLKDTFERLGRDAEAAHRAGLAFGVKLVRGAYLDKERAVAQLHGMEDPTQPDYEATSQSYSRCLELMLTHVARHGPMCHLMVASHNEESVRQATKRMWELGIPLDGTVCFGQLLGMCDHVSLALGQAGYVVYKSIPYGSLEEVIPYLIRRAQENRSVLQGARRE
B6: enzyme (Bacillus pumilus, UniProt A8FFI9); chain EARSIAWSVDEFFKNREGTFVIQEVKEKSPWVYNKKRAKERFAPQSTFKVANALIGLQTGAVRDEYDIKYWDGVKREIDNWNRDHTLGSGMRDSVVWYYQAMARDIGEERMNHWVKAIHYGNKDISGGIDQFWLSSTLRISPIEQVRFLKQLYEETLPFDLKNMRTVKRMMVQEEEKHATLYGKTGSGSDIGWYVGFIKHEHKTYILATNIKGTGIEAKDITYRILKKYHLMEASV
B7: pol D141A/E143A (Thermococcus kodakarensis, UniProt P77933); chain 1 MILDTDYITEDGKPVIRIFKKENGEFKIEYDRTFEPYFYALLKDDSAIEEVKKITAERHGTVVTVKRVEKVQKKFLGRPVEVWKLYFTHPQDVPAIRDKIREHPAVIDIYEYDIPFAKRYLIDKGLVPMEGDEELKMLAFAIATLYHEGEEFAEGPILMISYADEEGARVITWKNVDLPYVDVVSTEREMIKRFLRVVKEKDPDVLITYNGDNFDFAYLKKRCEKLGINFALGRDGSEPKIQRMGDRFAVEVKGRIHFDLYPVIRRTINLPTYTLEAVYEAVFGQPKEKVYAEEITTAWETGENLERVARYSMEDAKVTYELGKEFLPMEAQLSRLIGQSLWDVSRSSTGNLVEWFLLRKAYERNELAPNKPDEKELARRRQSYEGGYVKEPERGLWENIVYLDFR; chain 2 SLYPSIIITHNVSPDTLNREGCKEYDVAPQVGHRFCKDFPGFIPSLLGDLLEERQKIKKKMKATIDPIERKLLDYRQRAIKILAN; chain 3 NSYYGYYGYARARWYCKECAESVTAWGREYITMTIKEIEEKYGFKVIYSDTDGFFATIPGADAETVKKKAMEFLKYINAKLPGALELEYEGFYKRGFFVTKKKYAVIDEEGKITTRGLEIVRRDWSEIAKETQARVLEALLKDGDVEKAVRIVKEVTEKLSKYEVPPEKLVIHEQITRDLKDYKATGPHVAVAKRLAARGVKIRPGTVISYIVLKGSGRIGDRAIPFDEFDPTKHKYDAEYYIENQVLPAVERILRAFGYRKEDLRYQKTRQVGLSAWLKPKGT
B8: ASRGL1 (Homo sapiens, UniProt Q7L266); chain 1 MNPIVVVHGGGAGPISKDRKERVHQGMVRAATVGYGILREGGSAVDAVEGAVVALEDDPEFNAGCGSVLNTNGEVEMDASIMDGKDLSAGAVSAVQCIANPIKLARLVMEKTPHCFLTDQGAAQFAAAMGVPEIPGEKLVTERNKKRLEKEKHEKGAQKTDCQKNLG; chain 2 TVGAVALDCKGNVAYATSTGGIVNKMVGRVGDSPCLGAGGYADNDIGAVSTTGHGESILKVNLARLTLFHIEQGKTVEEAADLSLGYMKSRVKGLGGLIVVSKTGDWVAKWTSTSMPWAAAKDGKLHFGIDPDDTTITDLP
B9: FNO G29W (Thermobifida fusca, UniProt Q47RA9); chain MIMIMASKSSPHDLPDVSGLSIAVLGGTWDQGRGLARRFAMAGHEVILGSRSAERAQAVAAELGEGLPVRGMDNAGAAEAGDVVIVAVPWDGHRALLESLKDVLAGKIVVDCVNPLGFDKRGAYALPVEEGSAAEQAAAILPDSRVVAAFHHVSAVLLLDPEVEKVDLDVLVLGDDREATDVVRALAARIPGVRGVYGGRLRNAHQVEAFTANLISINRRYKAHAGIRITDI
B10: protein G96D (Streptomyces coelicolor, UniProt P16544); chain MATQDSEVALVTGATSGIGLEIARRLGKEGLRVFVCARGEEGLRTTLKELREAGVEADGRTCDVRSVPEIEALVAAVVERYGPVDVLVNNAGRPGDGATAELADELWLDVVETNLTGVFRVTKQVLKAGGMLERGTGRIVNIASTGGKQGVVHAAPYSASKHGVVGFTKALGLELARTGITVNAVCPGFVETPMAASVREHYSDIWEVSTEEAFDRITARVPIGRYVQPSEVAEMVAYLIGPGAAAVTAQALNVCGGLGNY
B11: enzyme (UniProt A0A2T5C445); chain MKSKQLNTDLFKVQAKQQIRLKNYDPASCNGFANRKEAEHQLKQDIKELADLQYQLYAENKRSVLIVFQAMDAAGKDGSIRHVFSGLNPQGCKVYSFKSPSANELDHDYLWRHYNKLPPRGEIGIFNRSHYENVLITRVHPEFLLNENLPDVHATNDITTEFWERRYRQIRDFEQTLTENGTTIIKFFLHLSKDEQKKRFMERIRKPAKNWKFSSADIRERQYWDDYQHAYEQAMRATSTEEAPWYIIPADNKWFTHVAIGNIIVETLQQMNIQMPEISSEEKDALKKAKKKLQNE
B12: PRXC1A (Armoracia rusticana, UniProt P00433); chain QLTPTFYDNSCPNVSNIVRDTIVNELRSDPRIAASILRLHFHDCFVNGCDASILLDNTTSFRTEKDAFGNANSARGFPVIDRMKAAVESACPRTVSCADLLTIAAQQSVTLAGGPSWRVPLGRRDSLQAFLDLANANLPAPFFTLPQLKDSFRNVGLNRSSDLVALSGGHTFGKNQCRFIMDRLYNFSNTGLPDPTLNTTYLQTLRGLCPLNGNLSALVDFDLRTPTIFDNKYYVNLEEQKGLIQSDQELFSSPNATDTIPLVRSFANSTQTFFNAFVEAMDRMGNITPLTGTQGQIRLNCRVVNSNS
Chain of UniProt P36022 (whole entry, looked up): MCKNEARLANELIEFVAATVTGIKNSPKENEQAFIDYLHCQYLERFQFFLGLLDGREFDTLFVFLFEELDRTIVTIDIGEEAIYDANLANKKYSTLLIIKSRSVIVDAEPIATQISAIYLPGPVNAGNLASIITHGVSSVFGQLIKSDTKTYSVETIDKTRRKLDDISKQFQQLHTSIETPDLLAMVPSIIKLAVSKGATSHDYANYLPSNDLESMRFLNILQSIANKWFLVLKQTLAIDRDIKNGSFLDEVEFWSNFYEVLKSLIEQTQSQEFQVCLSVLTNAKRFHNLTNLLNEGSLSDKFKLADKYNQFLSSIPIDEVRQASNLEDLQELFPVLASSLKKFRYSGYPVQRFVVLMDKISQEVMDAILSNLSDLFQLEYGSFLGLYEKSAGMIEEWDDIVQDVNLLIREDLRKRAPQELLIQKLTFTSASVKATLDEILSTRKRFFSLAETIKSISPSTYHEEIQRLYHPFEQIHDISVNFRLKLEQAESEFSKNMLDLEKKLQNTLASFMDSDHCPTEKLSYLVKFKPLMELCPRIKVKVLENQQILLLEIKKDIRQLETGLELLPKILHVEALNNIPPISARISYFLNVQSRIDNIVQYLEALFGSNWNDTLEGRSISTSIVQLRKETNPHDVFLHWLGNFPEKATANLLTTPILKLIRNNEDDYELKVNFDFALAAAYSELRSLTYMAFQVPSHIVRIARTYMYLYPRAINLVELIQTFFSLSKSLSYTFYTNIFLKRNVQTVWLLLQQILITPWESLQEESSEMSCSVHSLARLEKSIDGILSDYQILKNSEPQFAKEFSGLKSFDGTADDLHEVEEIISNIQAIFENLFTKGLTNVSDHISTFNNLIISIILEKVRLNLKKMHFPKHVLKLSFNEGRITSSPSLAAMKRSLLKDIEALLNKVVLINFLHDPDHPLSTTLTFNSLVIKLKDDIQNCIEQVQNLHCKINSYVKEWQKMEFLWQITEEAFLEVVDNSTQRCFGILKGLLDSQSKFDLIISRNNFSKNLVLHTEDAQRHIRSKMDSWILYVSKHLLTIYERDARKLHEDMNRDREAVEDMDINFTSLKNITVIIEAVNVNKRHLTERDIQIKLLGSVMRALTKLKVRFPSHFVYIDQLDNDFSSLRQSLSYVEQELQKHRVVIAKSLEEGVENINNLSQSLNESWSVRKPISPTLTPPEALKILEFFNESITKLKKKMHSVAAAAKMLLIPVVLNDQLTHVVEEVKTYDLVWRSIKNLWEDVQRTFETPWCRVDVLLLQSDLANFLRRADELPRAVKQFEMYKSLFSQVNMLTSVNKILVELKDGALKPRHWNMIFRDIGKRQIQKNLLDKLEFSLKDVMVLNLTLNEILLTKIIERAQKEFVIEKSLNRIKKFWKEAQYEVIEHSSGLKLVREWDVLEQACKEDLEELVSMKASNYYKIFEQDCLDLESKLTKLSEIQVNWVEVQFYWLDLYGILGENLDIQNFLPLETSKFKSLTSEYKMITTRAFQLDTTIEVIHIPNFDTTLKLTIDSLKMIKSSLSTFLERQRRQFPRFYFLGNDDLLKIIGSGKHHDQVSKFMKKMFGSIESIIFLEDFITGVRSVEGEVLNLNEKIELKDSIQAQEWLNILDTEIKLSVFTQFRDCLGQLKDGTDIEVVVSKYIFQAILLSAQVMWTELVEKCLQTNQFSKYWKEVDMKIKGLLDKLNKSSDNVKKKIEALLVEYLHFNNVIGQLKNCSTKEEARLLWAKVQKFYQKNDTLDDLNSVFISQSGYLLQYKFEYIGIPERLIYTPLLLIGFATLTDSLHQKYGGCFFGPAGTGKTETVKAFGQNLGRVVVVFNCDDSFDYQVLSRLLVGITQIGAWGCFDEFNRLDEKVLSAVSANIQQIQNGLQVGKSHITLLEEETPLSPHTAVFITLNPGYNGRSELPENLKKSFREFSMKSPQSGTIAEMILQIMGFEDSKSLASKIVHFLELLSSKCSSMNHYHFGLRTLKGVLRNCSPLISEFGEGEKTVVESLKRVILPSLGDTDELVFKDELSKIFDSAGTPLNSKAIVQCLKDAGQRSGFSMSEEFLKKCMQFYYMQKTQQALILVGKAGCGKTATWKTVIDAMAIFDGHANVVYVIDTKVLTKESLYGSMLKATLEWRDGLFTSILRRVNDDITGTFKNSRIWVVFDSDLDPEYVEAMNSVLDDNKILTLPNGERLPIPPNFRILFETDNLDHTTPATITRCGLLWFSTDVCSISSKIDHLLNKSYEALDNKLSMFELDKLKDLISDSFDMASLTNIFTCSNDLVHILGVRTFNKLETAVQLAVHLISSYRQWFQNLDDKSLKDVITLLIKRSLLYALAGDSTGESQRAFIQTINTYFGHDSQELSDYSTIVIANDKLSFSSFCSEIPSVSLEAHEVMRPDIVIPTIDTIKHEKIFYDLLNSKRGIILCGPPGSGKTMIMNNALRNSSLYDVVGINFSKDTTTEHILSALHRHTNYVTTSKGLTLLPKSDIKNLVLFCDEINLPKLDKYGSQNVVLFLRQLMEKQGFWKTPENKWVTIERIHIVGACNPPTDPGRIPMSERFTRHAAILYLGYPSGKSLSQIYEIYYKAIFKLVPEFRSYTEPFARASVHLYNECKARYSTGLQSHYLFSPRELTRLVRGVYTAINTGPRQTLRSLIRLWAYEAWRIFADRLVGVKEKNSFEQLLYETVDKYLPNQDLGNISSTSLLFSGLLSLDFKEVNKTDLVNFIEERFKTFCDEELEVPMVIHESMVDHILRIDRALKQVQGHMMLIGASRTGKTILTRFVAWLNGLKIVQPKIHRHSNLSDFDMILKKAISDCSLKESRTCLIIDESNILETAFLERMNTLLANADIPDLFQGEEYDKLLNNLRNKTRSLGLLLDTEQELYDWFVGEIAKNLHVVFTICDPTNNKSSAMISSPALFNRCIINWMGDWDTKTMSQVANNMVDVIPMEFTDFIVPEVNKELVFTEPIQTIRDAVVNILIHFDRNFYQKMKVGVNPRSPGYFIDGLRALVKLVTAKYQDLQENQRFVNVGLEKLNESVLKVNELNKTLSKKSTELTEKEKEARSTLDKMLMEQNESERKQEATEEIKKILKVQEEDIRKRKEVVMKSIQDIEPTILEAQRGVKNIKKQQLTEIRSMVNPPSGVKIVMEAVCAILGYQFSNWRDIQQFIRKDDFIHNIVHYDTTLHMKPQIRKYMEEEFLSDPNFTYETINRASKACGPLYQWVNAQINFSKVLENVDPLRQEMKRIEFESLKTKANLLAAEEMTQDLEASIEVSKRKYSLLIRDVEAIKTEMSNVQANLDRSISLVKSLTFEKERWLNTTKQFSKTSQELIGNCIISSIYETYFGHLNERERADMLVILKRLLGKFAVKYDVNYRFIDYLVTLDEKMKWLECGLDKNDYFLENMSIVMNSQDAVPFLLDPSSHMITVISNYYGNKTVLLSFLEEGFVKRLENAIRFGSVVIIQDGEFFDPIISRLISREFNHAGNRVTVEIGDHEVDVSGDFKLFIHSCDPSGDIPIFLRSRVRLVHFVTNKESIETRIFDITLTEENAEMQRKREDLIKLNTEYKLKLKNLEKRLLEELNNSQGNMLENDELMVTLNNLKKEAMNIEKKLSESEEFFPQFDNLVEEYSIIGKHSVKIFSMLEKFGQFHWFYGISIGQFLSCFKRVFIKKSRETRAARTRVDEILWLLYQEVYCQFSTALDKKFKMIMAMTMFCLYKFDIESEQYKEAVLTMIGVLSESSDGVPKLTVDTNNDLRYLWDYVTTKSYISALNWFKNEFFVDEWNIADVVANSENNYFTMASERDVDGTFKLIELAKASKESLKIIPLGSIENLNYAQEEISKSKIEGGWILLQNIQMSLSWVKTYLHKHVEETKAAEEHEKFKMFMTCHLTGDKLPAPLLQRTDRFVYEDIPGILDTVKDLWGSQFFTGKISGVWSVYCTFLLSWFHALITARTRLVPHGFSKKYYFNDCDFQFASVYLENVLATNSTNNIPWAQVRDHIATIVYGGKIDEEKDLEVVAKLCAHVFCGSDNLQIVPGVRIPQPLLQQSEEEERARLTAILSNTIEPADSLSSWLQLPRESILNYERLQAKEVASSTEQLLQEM
Chain of UniProt P76562 (whole entry, looked up): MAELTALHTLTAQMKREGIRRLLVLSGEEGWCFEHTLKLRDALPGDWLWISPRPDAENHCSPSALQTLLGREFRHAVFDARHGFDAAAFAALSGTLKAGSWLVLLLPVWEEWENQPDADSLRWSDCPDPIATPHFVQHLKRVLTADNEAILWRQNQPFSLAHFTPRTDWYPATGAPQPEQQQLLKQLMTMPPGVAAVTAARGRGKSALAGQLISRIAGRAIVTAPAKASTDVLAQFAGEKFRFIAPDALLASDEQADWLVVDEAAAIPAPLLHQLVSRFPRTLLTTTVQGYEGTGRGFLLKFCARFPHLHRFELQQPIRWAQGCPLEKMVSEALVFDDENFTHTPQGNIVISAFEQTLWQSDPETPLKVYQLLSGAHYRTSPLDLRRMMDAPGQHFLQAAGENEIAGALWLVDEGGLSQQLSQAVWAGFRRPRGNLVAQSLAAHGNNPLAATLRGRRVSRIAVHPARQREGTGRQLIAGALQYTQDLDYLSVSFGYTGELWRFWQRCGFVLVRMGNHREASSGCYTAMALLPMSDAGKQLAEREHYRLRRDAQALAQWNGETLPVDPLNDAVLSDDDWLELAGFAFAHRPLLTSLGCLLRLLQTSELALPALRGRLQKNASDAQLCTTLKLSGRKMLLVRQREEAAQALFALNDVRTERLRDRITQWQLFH
Chain of UniProt P76043 (whole entry, looked up): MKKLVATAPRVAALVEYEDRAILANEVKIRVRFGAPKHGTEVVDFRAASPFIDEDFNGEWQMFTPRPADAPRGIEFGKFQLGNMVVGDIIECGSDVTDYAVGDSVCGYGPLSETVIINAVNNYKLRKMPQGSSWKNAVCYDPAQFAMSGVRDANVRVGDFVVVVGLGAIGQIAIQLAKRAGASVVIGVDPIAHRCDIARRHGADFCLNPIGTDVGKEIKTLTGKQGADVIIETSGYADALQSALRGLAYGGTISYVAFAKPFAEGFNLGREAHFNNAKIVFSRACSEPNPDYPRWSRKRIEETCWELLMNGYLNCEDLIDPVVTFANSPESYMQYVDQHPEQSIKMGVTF

Molecule	substrate	conditions	kcat [s⁻¹]
B1 (MTRR A129T)	COc1cccc2c1C(=O)c1c(O)c3c(c(O)c1C2=O)C[C@@](O)(C(=O)CO)C[C@@H]3O[C@H]1C[C@H](N)[C@H](O)[C@H](C)O1	pH 7.5, 37 °C, substoichiometric FMN, together with: NADPH	0.71 ± 0.051
pgmB H20N (Lactococcus lactis) (sequence not shown)	O=P(O)(O)OC[C@H]1O[C@@H](OP(=O)(O)O)[C@H](O)[C@@H](O)[C@@H]1O	pH 7, 25 °C	0.0303 ± 0.0005
B2 (ZDHHC20)	CCCCCCCCCCCCCCCC(=O)SCCNC(=O)CCNC(=O)[C@H](O)C(C)(C)COP(=O)(O)OP(=O)(O)OC[C@H]1O[C@@H](n2cnc3c(N)ncnc32)[C@H](O)[C@@H]1OP(=O)(O)O	pH 6.5, 30 °C, NaCl 50 mM	0.275 ± 0.005
B3 (protein F222G)	CC(C)=CCOP(=O)(O)OP(=O)(O)O	together with: tri-Tyr peptide acceptor	0.0192 ± 0.0015
B4 (CstB)	O=S(O)(O)=S	pH 6, 25 °C, together with: KCN 50 mM	8.5 ± 0.5
B5 (PRODH2 157-515)	O=C(O)[C@@H]1C[C@@H](O)CN1	pH 7.5, 25 °C, together with: O2	0.002 ± 0.001
DYN1 (Saccharomyces cerevisiae, UniProt P36022)	Nc1ncnc2c1ncn2[C@@H]1O[C@H](CO[P@](=O)(O)O[P@](=O)(O)O[P@@](=O)(O)S)[C@@H](O)[C@H]1O	pH 7.2	4.52 ± 0.42
B6 (enzyme)	CC(=O)OCC1=C(C(=O)O)N2C(=O)[C@@H](NC(=O)Cc3cccs3)[C@H]2SC1	pH 7	0.7 ± 0.03
B7 (pol D141A/E143A)	Nc1nc2c(ncn2[C@H]2C[C@H](O)[C@@H](COP(=O)(O)OP(=O)(O)OP(=O)(O)O)O2)c(=O)[nH]1	pH 8, 55 °C	5.9 ± 0.1
B8 (ASRGL1)	NC(=O)C[C@H](N)C(=O)O	pH 7.4, 37 °C, NaCl 100 mM	6.9 ± 0.2
speG (Vibrio cholerae, UniProt Q9KL03)	NCCCCNCCCN	pH 9, 37 °C	26.7
ycjQ (Escherichia coli, UniProt P76043)	CO[C@H]1O[C@H](CO)[C@H](O)C(=O)[C@H]1O	pH 7, 30 °C, together with: NADH 0.3 mM, MnCl2 0.5 mM	18.5 ± 1.6
B9 (FNO G29W)	NC(=O)c1ccc[n+](Cc2ccccc2)c1	pH 8, 25 °C, together with: F420H2 40 µM	0.417 ± 0.0183
B10 (protein G96D)	O[C@H]1CCCc2ccccc21	pH 7.4, phosphate 400 mM, NADPH 250 µM printed, together with: NADP+, reverse reaction	0.021 ± 0.004
B11 (enzyme)	Nc1nc2c(ncn2[C@@H]2O[C@H](COP(=O)(O)O)[C@@H](O)[C@H]2O)c(=O)[nH]1	pH 8, 30 °C	49 ± 18
tmcA (Escherichia coli, UniProt P76562)	Nc1nc2c(ncn2[C@@H]2O[C@H](COP(=O)(O)OP(=O)(O)OP(=O)(O)O)[C@@H](O)[C@H]2O)c(=O)[nH]1	pH 7.8	0.0252
B12 (PRXC1A)	CCn1c(=NN=c2sc3cc(S(=O)(=O)O)ccc3n2CC)sc2cc(S(=O)(=O)O)ccc21	pH 7, 25 °C, apparent	160 ± 10
Paox (Mus musculus, UniProt Q8C0L6)	c1ccc(CNCCCCNCc2ccccc2)cc1	pH 8.6, 30 °C	0.9 ± 0.03

A few entries again:
Molecule	substrate	conditions	kcat [s⁻¹]
B5 (PRODH2 157-515)	O=C(O)[C@@H]1C[C@@H](O)CN1	pH 7.5, 25 °C, together with: O2	0.002 ± 0.001
B9 (FNO G29W)	NC(=O)c1ccc[n+](Cc2ccccc2)c1	pH 8, 25 °C, together with: F420H2 40 µM	0.417 ± 0.0183
